Measured values gathered from unrelated publications.
Parts stem from different laboratories: compare values within a part only. Changes are numbered by the printed parent chain.

Block 1
Target: Fragile X messenger ribonucleoprotein 1, C-terminal low-complexity region (Fmr1, Mus musculus, UniProt P35922)
Technique: RNA Bind-n-Seq
Molecule type: RNA
Matrix: in vitro
Concentration: 200 nM
Notes: whole 134-nt RNA, ends assumed
Together with: 150 mM KCl
Reference: input library
Reading: higher = stronger binding
All sequences stand within: GGGAGUUCUACAGUCCGACGAUC … UGGAAUUCUCGGGUGUCAAGG
Sequence | log2 enrichment
GUCCUGUGCUACACAUCGUAUGUACCGAAUCGGGGAGGGGUUUUUGGGGUUUUUGGGGAAAGUAUUAUGUUACGCCGUUCGGAUCUGCAC | 0.699
UUUUAAUUUGUUUGUCUCUCAUGAAACUAUGGUCUUUUAAAAAUUAAAGGUUUUUUUUUUCCCCUUAGACGAAACUGCAAAGGAAAUCCG | -0.251
GUCCUGUGCUACACAUCGUAUGUACCGAAUCGGGAGGGUUUUUUUGGGAAAAAAAGGGAAAGUAUUAUGUUACGCCGUUCGGAUCUGCAC | -0.215
CAAGUCCUGUGCUACACAUCGUAUGUACCGAAUCGGAAAAAGGUGGUUUUUUUGGAAAGUAUUAUGUUACGCCGUUCGGAUCUGCACUUC | -0.81
CCUGUGCUACACAUCGUAUGUACCGAAUCGGGUUUUUUUGGGUUUUUUUGGGUUUUUGGGAAAGUAUUAUGUUACGCCGUUCGGAUCUGC | -0.311
UGGCCCUGGUGGCAUGCGGGGAGGAAGAGUUGGCCUCAUGGAUCGUGGUGGUCCCGGUGGAAUGUUCAGAGGUGGCCGUGGUGGAGACAG | -0.104
CUCAAGUCCUGUGCUACACAUCGUAUGUACCGAAUCGGUUUGGUUUGGAAAGGAAAGUAUUAUGUUACGCCGUUCGGAUCUGCACUUCCA | -0.304
UGGGAGGUGGAUUUUGUUUAUUUUUUUAGCUCAUUUCCAGGGGUGGGAAUUUUUUUUUAAUAUGUGUCAUGAAUAAAGCUGUUUUUGAAA | 0.225
UAACUUUAGAGGAGGAUCUGAUGGAUAUGGCAGUGGACGUGGAUUUGGGGAUGGCCAUAAUGGGUAUGGAGGAGGACCUGGAGGUGGCAA | 0.392

Block 2
Target: Histone acetyltransferase KAT6A, both winged helices, GST fusion (KAT6A, Homo sapiens, UniProt Q92794, residues 1-181)
Technique: protein binding microarray
Molecule type: double-stranded DNA, one strand shown
Matrix: in vitro
Concentration: not given
Notes: 8-mer, flanks averaged, mean of 2 arrays, mostly near background
Reference: not given
Reading: higher = stronger binding
Construct (chain): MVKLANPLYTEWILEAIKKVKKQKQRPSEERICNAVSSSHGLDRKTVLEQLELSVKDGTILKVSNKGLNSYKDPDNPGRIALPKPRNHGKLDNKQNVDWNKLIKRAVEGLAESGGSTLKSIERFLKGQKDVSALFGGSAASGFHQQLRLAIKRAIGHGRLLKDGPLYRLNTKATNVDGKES
Sequence | E-score
ATACCCCC | -0.0771
CTCCAAAG | -0.119
AACTGTAC | 0.0237
ATTGGACC | -0.012
AGCGGTAC | 0.283
TCCTCCCA | -0.0182
CAGCAAGG | -0.206
GGTGGCAC | -0.0658
GGCAGTTA | -0.0631
ATCAGCAG | 0.0383
CGTCATGC | 0.162
ACTCGCTA | 0.0444
GCGGCACC | 0.283
AACACCAC | -0.0218
TCGAGTAA | -0.172
TAGGACAA | -0.209
CCGTTAGC | 0.181

Block 3
Target: RNA binding protein fox-1 homolog 2, RRM domain, GST-SBP tag (RBFOX2, Homo sapiens, UniProt O43251-10, residues 100-194)
Technique: RNA Bind-n-Seq
Molecule type: RNA
Matrix: in vitro
Concentration: 365 nM
Notes: natural RNA segment, single round, ends assumed
Reference: no-protein control
Reading: higher = stronger binding
All sequences stand within: GGGAGUUCUACAGUCCGACGAUC … UGGAAUUCUCGGGUGCCAA
Construct (chain): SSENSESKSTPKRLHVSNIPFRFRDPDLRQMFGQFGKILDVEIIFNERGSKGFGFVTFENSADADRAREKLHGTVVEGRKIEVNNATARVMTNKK
Sequence | RBNS enrichment (R)
GCAUACUUUGGCUGAACAAACAUUUAUUGGGCACUUCAGCUCAUUAGCACCAGGCAUGUAUAGACACAUGACUCAACUUCAGCAUUUGGAGCCAGCGAGACCAGGAUCCC | 0.27
UUUUUAAAUAAAACCAUUCACAGUUUACUUUGUCUUGAUACCUUGGUUUGUCCCAGCUGAAGUGAAGCAAGAGAGUUUGAAUUAAUUUUUCCAUUAUAAUGUUUUCGCAU | 0.857
ACCUGAAGAAAGCCUCUCAGUGUGGAGAUAAUUUAUUUUUACCUUCACUGUGACCUUGAGAAGAUUCUUCCCAUUCUCCAUUUGUUAUCUGGGAACUUAUUAAAUGGAAA | 2.1
AUUUUAAAGGCAAUUUAAGUUGCCUUUAGUUGACCGGUAAACUAAUCCAGUUGGAACAUACAUGCUUUUUUGAAGAAAUUACUUGAAUAAAAUAGUUUUCACAUUUUCAA | 0.662
UUGUAAAAUAUUUUCAAAUGGUUUAUUACAGAAGAUCAGUUAUUAAAUAAUGUUCAUAUUUUCACUUAAAUGGUUCCCAUCCACUGUAUCAGCUUGGGGGUGAGGACUGG | 0.429
AAUUUUAUUUUAAAAUGUGUAUAUAUCAGGCUUAAUAAAGAUACUCUUUUAAGCUAUACACCUAGAAUUUGAGUUUUUCUGUUCAGUAUUUGGUUAUUUUGUGGCUAUAA | 0.505
CUCUGGGCCUCCUCUAACAGGGGCUGGUGGGCACCAAGAGCCAAUGGAGUAGACCCCUGGCUGGUAAGGGCCAAGUCCCACCGGUUGCUUCUGGGAAGGGGUUUCUAACA | 0.789
UAGUGAAAUUGUAUCUCAUAUUAACAUUUCAAAUGCUCAUAUUGAAAAUGGAAAAUAGUAAACACGGGAAUUGAUUUUAUUCUGGUUGUCUAUAAUACUUCAUUUUAAAU | 0.437

Block 4
Target: Interferon regulatory factor 5, full length, phosphomimetic (IRF5, Homo sapiens, UniProt Q13568-2, residues 1-514, K96S/S451D/S453D/S456D/S462D)
Technique: protein-binding microarray
Molecule type: double-stranded DNA, one strand shown
Matrix: in vitro
Concentration: 250 nM
Notes: 60-bp whole probe
Together with: salmon DNA 0.4 mg/ml
Reference: random background probes
Reading: higher = stronger binding
All sequences stand within: GCCTAGCAC … GTCTTGATTCGCTTGACGCTGCTG
Sequence | log fluorescence
CACAACCAAACAAGAAGATGGTGCTAG | 0.0449 z-score
TCACTTCTGCATTACAGACTGTGCTAG | 0.346 z-score
TCCACTTTGACTTAAGAGGCGTGCTAG | 0.0559 z-score
CTAGAGATTTTTCTCAACCGGTGCTAG | -0.16 z-score
GACGGACTGGGACGGGGGACGTGCTAG | 0.478 z-score
GACGGACTGGGGTTTCAGGACGTGCTA | -0.389 z-score
CAGGTTTCTGATGGGCCTAGGTGCTAG | 0.906 z-score
TCACCCCTTGCTTTCCAACTGTGCTAG | 0.128 z-score
CACGGACTGGGGTTTCGGGACGTGCTA | 1.13 z-score
TTAGGTTTCCTACTGTTTTAGTGCTAG | 0.625 z-score
TTAGAACTGCTTTTCCTTTAGTGCTAG | 0.544 z-score
TTAGGTTTCCTTATCCCTTAGTGCTAG | 1.01 z-score
GACGGTTTCATTTCCCTGACGTGCTAG | 2.43 z-score
TTAGATTACGGGACTGGATTAGTGCTA | -0.289 z-score
TTAGGTATCGTCACTGGGTTAGTGCTA | 0.858 z-score
GACGGTTTCGGTTCCTGGACGTGCTAG | 9.44 z-score
AACGGACTGGGGTTTCGGGACGTGCTA | 1.12 z-score
GACGGTATCCTTTTCCTGAAGTGCTAG | 0.294 z-score
TACGATCTCAGTCTCGAGACGTGCTAG | 0.239 z-score

Block 5
Target: CCNB1, cyclin fold, Cln2 fusion (human)
Technique: yeast growth competition, sequencing
Matrix: yeast
Notes: weak parent motif
Reference: not given
Reading: higher = stronger binding
Starting sequence: E2F8 docking peptide (human); FVPQRKLEVSTED
Variant | normalised enrichment score
V9A | -0.0921
R5A | 0.188
V9L | 0.112
E8A | -0.0814
L7A | 0.381
R5A L7A | 0.0833
T11A | 0.165
V9F | 0.486
R5K V9F | 0.556
P3A | 0.261
Q4A | -0.421

Some of these lines once more (block 4):
Sequence | log fluorescence
TCACCCCTTGCTTTCCAACTGTGCTAG | 0.128 z-score
TCCACTTTGACTTAAGAGGCGTGCTAG | 0.0559 z-score
TACGATCTCAGTCTCGAGACGTGCTAG | 0.239 z-score
AACGGACTGGGGTTTCGGGACGTGCTA | 1.12 z-score
